Measured values collected from several papers.
Every numbered part comes from another study and shows a few of its results, in no order.
Sequence of UniProt O95665 (whole entry, looked up): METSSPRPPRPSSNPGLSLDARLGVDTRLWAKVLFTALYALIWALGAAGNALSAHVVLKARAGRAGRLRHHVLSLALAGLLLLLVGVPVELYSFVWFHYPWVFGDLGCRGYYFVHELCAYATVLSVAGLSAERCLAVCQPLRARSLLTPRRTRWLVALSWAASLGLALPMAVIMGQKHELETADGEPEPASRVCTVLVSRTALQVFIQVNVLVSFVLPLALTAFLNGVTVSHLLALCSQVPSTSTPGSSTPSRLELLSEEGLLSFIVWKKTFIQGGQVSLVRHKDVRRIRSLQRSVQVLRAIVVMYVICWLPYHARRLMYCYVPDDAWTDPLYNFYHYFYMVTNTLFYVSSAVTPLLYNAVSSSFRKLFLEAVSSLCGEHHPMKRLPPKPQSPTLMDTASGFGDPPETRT
Sequence of UniProt P41743 (whole entry, looked up): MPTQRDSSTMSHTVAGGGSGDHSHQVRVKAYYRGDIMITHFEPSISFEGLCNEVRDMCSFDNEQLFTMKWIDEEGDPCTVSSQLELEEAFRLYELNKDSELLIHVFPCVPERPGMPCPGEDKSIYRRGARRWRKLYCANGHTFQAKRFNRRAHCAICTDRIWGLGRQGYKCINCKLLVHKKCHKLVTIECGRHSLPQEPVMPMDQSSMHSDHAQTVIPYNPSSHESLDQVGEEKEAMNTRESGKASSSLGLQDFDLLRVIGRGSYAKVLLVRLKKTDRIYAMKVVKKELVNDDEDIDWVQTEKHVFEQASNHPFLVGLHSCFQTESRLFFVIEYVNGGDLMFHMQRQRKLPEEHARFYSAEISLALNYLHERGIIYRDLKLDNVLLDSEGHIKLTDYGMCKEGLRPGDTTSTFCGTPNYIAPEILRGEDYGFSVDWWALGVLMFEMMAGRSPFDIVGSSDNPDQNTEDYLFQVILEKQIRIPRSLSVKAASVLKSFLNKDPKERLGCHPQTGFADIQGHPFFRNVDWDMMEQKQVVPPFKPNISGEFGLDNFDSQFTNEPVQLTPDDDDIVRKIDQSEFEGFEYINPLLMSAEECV
Sequence of UniProt P34969 (whole entry, looked up): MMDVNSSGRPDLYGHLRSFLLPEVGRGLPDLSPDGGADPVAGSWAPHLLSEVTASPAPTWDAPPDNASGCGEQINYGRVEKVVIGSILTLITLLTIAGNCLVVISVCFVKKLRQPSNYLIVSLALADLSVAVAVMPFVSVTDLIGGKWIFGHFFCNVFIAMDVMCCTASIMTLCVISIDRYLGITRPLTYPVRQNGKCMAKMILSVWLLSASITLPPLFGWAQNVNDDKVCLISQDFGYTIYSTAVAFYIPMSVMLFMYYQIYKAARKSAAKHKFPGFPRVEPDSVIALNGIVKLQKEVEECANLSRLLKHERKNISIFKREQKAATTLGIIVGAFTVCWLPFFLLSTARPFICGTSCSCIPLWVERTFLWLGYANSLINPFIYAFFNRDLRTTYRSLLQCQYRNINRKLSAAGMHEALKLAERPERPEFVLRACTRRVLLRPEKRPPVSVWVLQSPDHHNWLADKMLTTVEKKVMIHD
Sequence of UniProt Q5S007 (whole entry, looked up): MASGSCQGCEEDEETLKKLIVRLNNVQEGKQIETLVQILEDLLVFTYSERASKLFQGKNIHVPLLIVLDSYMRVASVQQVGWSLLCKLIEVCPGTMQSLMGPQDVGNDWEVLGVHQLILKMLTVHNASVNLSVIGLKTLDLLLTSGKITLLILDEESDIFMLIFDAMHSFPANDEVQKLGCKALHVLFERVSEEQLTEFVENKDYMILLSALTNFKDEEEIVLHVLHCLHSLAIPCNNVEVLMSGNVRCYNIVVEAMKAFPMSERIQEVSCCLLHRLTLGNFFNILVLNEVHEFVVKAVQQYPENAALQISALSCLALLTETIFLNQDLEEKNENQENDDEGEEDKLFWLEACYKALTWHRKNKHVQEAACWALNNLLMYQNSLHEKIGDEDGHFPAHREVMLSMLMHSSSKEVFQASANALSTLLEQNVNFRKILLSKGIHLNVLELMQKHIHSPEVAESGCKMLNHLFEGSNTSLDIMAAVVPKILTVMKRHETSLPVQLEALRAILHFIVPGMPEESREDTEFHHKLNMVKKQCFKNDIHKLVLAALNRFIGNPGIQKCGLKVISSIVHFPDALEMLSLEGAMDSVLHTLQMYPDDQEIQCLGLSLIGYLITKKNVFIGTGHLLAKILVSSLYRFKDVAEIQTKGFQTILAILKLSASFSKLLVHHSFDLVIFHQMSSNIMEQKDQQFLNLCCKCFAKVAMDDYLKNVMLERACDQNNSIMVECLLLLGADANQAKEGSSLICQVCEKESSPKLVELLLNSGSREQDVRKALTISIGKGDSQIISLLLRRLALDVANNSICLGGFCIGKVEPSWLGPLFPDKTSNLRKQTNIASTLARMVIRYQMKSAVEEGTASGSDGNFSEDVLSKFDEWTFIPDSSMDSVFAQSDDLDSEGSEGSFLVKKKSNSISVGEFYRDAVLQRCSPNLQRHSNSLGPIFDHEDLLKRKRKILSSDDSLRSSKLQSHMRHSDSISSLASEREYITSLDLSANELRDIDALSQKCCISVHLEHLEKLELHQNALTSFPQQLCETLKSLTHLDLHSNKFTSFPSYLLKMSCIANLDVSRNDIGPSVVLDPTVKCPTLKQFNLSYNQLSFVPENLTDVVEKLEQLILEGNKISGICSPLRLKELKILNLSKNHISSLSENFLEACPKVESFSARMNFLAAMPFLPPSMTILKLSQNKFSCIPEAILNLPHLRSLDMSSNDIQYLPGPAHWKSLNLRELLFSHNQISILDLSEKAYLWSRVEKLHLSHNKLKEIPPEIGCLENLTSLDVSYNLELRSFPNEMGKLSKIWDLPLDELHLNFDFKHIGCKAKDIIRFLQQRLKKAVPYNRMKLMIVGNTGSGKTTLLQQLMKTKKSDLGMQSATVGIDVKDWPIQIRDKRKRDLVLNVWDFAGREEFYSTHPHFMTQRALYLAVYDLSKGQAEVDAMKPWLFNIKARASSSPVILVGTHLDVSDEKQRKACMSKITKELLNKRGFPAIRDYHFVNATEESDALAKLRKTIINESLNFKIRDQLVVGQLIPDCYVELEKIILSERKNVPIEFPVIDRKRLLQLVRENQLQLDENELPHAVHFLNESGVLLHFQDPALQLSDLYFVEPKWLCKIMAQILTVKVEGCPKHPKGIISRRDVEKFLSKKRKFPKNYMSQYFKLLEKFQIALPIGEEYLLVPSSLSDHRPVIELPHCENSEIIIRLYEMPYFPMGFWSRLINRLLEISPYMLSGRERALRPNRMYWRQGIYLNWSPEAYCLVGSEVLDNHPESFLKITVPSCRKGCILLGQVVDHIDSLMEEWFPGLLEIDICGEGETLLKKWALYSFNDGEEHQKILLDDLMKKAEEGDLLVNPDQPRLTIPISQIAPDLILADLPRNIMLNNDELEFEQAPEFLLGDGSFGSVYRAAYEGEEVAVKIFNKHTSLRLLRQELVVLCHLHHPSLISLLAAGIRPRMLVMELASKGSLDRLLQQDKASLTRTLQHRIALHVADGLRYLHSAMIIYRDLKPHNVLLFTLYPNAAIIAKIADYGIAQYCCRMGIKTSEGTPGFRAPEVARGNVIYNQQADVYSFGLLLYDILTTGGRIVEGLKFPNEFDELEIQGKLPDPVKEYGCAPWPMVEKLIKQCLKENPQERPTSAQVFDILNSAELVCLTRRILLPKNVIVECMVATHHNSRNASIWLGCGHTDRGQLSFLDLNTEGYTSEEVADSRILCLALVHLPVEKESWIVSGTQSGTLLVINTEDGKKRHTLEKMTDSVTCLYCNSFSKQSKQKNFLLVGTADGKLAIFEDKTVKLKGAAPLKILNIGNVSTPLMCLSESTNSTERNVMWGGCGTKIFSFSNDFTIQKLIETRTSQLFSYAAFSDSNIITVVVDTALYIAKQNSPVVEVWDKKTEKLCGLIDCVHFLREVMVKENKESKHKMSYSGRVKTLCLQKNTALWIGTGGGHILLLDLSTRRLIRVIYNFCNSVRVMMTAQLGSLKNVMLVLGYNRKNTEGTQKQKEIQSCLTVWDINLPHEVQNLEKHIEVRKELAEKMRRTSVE
Sequence of UniProt Q13304 (whole entry, looked up): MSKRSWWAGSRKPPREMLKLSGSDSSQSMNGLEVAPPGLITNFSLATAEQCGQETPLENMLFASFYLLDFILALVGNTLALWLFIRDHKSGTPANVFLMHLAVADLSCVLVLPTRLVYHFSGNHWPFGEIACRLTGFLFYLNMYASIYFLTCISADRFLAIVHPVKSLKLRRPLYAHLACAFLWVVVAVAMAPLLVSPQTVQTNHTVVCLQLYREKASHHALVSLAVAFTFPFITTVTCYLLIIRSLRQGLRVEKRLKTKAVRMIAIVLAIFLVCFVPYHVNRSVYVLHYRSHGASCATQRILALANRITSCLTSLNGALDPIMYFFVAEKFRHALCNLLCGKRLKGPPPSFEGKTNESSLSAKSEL
Sequence of UniProt Q13131 (whole entry, looked up): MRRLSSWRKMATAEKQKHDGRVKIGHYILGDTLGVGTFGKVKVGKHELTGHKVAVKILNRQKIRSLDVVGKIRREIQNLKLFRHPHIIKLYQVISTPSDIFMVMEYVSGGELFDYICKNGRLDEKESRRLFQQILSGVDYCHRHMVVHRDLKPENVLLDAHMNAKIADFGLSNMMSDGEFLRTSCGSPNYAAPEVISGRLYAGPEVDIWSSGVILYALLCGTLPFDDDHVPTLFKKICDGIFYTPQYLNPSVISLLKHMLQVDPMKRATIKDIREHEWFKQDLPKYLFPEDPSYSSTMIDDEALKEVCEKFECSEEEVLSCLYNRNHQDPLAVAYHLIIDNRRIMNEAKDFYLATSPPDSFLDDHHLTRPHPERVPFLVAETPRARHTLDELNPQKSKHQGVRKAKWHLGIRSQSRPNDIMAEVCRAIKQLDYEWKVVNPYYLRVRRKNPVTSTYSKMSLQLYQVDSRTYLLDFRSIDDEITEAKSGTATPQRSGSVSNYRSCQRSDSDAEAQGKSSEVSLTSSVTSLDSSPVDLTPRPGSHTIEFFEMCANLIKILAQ

Set 1
SMILES: CC(C)CN(C)c1nc(N)c(C(=O)N=C(N)N)nc1Cl
Effect on: β-arrestin recruitment
Action: agonist
Method: PRESTO-Tango
Concentration: 10 µM
Baseline: untreated
Quantity: fold over basal
Adhesion G protein-coupled receptor L4 (ADGRL4, Homo sapiens, UniProt Q9HBW9): 1.06
Neurotensin receptor type 2 (NTSR2, Homo sapiens, UniProt O95665): 1.12
C-C chemokine receptor type 4 (CCR4, Homo sapiens, UniProt P51679): 1.35
GPR37 (Homo sapiens, UniProt O15354): 1.19
P2Y purinoceptor 13 (P2RY13, Homo sapiens, UniProt Q9BPV8): 0.91
Motilin receptor (MLNR, Homo sapiens, UniProt O43193): 0.86
5-hydroxytryptamine receptor 2B (HTR2B, Homo sapiens, UniProt P41595): 1.06
Proteinase-activated receptor 4 (F2RL3, Homo sapiens, UniProt Q96RI0): 0.47 fold
Oxoeicosanoid receptor 1 (OXER1, Homo sapiens, UniProt Q8TDS5): 0.58
5-hydroxytryptamine receptor 7 (HTR7, Homo sapiens, UniProt P34969): 0.82
Melatonin-related receptor (GPR50, Homo sapiens, UniProt Q13585): 0.72
Uracil nucleotide/cysteinyl leukotriene receptor (GPR17, Homo sapiens, UniProt Q13304): 0.85
C-C chemokine receptor-like 2 (Homo sapiens, UniProt O00421): 0.99
Histamine H1 receptor (HRH1, Homo sapiens, UniProt P35367): 1.25 fold
Adenosine receptor A2a (ADORA2A, Homo sapiens, UniProt P29274): 0.71
Lysophosphatidic acid receptor 6 (Homo sapiens, UniProt P43657): 0.85
Adenosine receptor A2b (ADORA2B, Homo sapiens, UniProt P29275): 0.53

Set 2
Compound: Cc1nccc(COC(=O)N2C[C@@H]3[C@@H](CNC(=O)c4ccc5[nH]nnc5c4)[C@@H]3C2)n1
Concentration: 1 µM
Quantity: remaining binding
Ephrin type-A receptor 4 (EPHA4, Homo sapiens, UniProt P54764); cell-free assay, competition with immobilised ligand: 98%
Protein kinase C epsilon type (PRKCE, Homo sapiens, UniProt Q02156); cell-free assay, competition with immobilised ligand: 100%
Eukaryotic translation initiation factor 2-alpha kinase 1 (EIF2AK1, Homo sapiens, UniProt Q9BQI3); cell-free assay, competition with immobilised ligand: 100%
Serine/threonine-protein kinase MAK (MAK, Homo sapiens, UniProt P20794); cell-free assay, competition with immobilised ligand: 98%
Protein kinase C iota type (PRKCI, Homo sapiens, UniProt P41743); cell-free assay, competition with immobilised ligand: 100%
Cyclin-dependent kinase-like 3 (CDKL3, Homo sapiens, UniProt Q8IVW4); cell-free assay, competition with immobilised ligand: 99%
Cyclin-dependent kinase-like 2 (CDKL2, Homo sapiens, UniProt Q92772); cell-free assay, competition with immobilised ligand: 95%
Mast/stem cell growth factor receptor Kit (KIT, Homo sapiens, UniProt P10721, V559D); cell-free assay, competition with immobilised ligand: 86%
Serine/threonine-protein kinase MRCK gamma (CDC42BPG, Homo sapiens, UniProt Q6DT37); competition binding: 92%
Atypical kinase COQ8A, mitochondrial (COQ8A, Homo sapiens, UniProt Q8NI60); cell-free assay, competition with immobilised ligand: 84%
Leucine-rich repeat serine/threonine-protein kinase 2 (LRRK2, Homo sapiens, UniProt Q5S007); cell-free assay, competition with immobilised ligand: 100%
5'-AMP-activated protein kinase catalytic subunit alpha-1 (PRKAA1, Homo sapiens, UniProt Q13131); cell-free assay, competition with immobilised ligand: 92%
Insulin receptor (INSR, Homo sapiens, UniProt P06213); cell-free assay, competition with immobilised ligand: 84%
Tyrosine-protein kinase FRK (FRK, Homo sapiens, UniProt P42685); cell-free assay, competition with immobilised ligand: 100%
Calcium/calmodulin-dependent protein kinase type II subunit gamma (CAMK2G, Homo sapiens, UniProt Q13555); cell-free assay, competition with immobilised ligand: 100%
NT-3 growth factor receptor (NTRK3, Homo sapiens, UniProt Q16288); cell-free assay, competition with immobilised ligand: 90%
TGF-beta receptor type-1 (TGFBR1, Homo sapiens, UniProt P36897); cell-free assay, competition with immobilised ligand: 100%
Rhodopsin kinase GRK1 (GRK1, Homo sapiens, UniProt Q15835); cell-free assay, competition with immobilised ligand: 100%
Cyclin-dependent kinase 18 (CDK18, Homo sapiens, UniProt Q07002); cell-free assay, competition with immobilised ligand: 100%
Phosphatidylinositol 4,5-bisphosphate 3-kinase catalytic subunit alpha isoform (PIK3CA, Homo sapiens, UniProt P42336, I800L); cell-free assay, competition with immobilised ligand: 73%
Serine/threonine-protein kinase 17A (STK17A, Homo sapiens, UniProt Q9UEE5); cell-free assay, competition with immobilised ligand: 79%
Phosphatidylinositol 3-kinase C2 domain-containing subunit gamma (PIK3C2G, Homo sapiens, UniProt O75747); cell-free assay, competition with immobilised ligand: 99%
ALK tyrosine kinase receptor (ALK, Homo sapiens, UniProt Q9UM73, L1196M); cell-free assay, competition with immobilised ligand: 93%
Protein kinase C theta type (PRKCQ, Homo sapiens, UniProt Q04759); cell-free assay, competition with immobilised ligand: 91%
Mitogen-activated protein kinase 1 (MAPK1, Homo sapiens, UniProt P28482); cell-free assay, competition with immobilised ligand: 100%

Set 3
SMILES: COc1ccc(-c2c(Nc3ccccn3)[nH]c3c(C4=CCCCC4)c(-c4ccccc4)nn3c2=O)cc1
Host: human patients
Medium: plasma
Quantity: geometric mean concentration
measured: methionine; 200 mg once daily, 6 h: 106000 ng/mL
measured: S-adenosylmethionine; 200 mg once daily, 0 h: 15.3 ng/mL
measured: S-adenosylmethionine; 150 mg once daily, 4 h: 20.3 ng/mL
measured: S-adenosylmethionine; 400 mg once daily, 0 h: 18.5 ng/mL
measured: methionine; 200 mg once daily, 2 h: 105000 ng/mL
measured: methionine; 150 mg once daily, 4 h: 119000 ng/mL
measured: methionine; 400 mg once daily, 2 h: 75400 ng/mL
measured: S-adenosylmethionine; 150 mg once daily, 6 h: 18.8 ng/mL
measured: S-adenosylmethionine; 200 mg once daily, 6 h: 14.5 ng/mL
measured: methionine; 150 mg once daily, 6 h: 115000 ng/mL
measured: methionine; 200 mg once daily, 8 h: 107000 ng/mL
measured: methionine; 200 mg once daily, 4 h: 113000 ng/mL

Set 4
Target: Diamine acetyltransferase 1 (Homo sapiens, UniProt P21673)
Action: inhibitor
Concentration: 10 µM
Baseline: control
Quantity: remaining activity
Residues (P21673 1-171): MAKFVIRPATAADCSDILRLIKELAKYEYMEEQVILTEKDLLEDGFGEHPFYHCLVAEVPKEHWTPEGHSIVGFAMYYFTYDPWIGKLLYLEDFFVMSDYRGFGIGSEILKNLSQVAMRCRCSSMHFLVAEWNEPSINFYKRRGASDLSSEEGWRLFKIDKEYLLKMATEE
CC1(C)[C@@H]2CC[C@@]1(C)C(=O)C2: 103%
CCCCC[C@H](O)CC(=O)CCc1ccc(O)c(OC)c1: 107%
O=c1c2cc(O)c(O)cc2oc2cc(O)c([C@@H]3O[C@H](CO)[C@@H](O)[C@H](O)[C@H]3O)c(O)c12: 84.6%
O=Cc1ccc(CO)o1: 100%
C[C@@H]1O[C@@H](O[C@@H]2[C@@H](O)[C@H](O)[C@@H](CO)O[C@H]2c2c(O)cc(O)c3c(=O)cc(-c4ccc(O)cc4)oc23)[C@H](O)[C@H](O)[C@H]1O: 103%
O=c1c(O)c(-c2ccc(O)cc2O)oc2cc(O)cc(O)c12: 82.7%
C=C1CC[C@]2(C)CC[C@]3(C)[C@H](CC[C@@H]4[C@@]5(C)CC[C@H](OC(C)=O)C(C)(C)[C@@H]5CC[C@]43C)[C@H]2[C@@H]1C: 91.9%
COc1cccc(OC)c1O: 89.1%
COc1cc([C@H]2OC[C@H]3[C@@H]2CO[C@@H]3c2ccc(O[C@@H]3O[C@H](CO)[C@@H](O)[C@H](O)[C@H]3O)c(OC)c2)ccc1O: 67.2%
O=C(/C=C/c1ccc(O)c(O)c1)O[C@@H]1C[C@@](OC(=O)/C=C/c2ccc(O)c(O)c2)(C(=O)O)C[C@@H](O)[C@@H]1O: 101%
OCC(O)c1ccccc1 (stereo not shown): 108%
Cc1cccc(C(=O)O)c1O: 101%
O=c1c(O[C@@H]2O[C@H](CO)[C@H](O)[C@H](O)[C@H]2O)c(-c2ccc(O)c(O)c2)oc2cc(O)cc(O)c12: 72.4%
